{"data": "Assay results collected from several papers", "medium": "plasma", "note": "Each line is one published result; not all experiments were run side by side. ± marks the error that the study gave."}
{"Structure (SMILES)": "CCCCCCCCCCCCCCCC(=O)N[C@@H](CCCCN)C(=O)N[C@@H](CCCCN)C(=O)N[C@@H](CO)C(=O)N[C@@H](CCCNC(=N)N)C(=O)N[C@@H](C)C(=O)N[C@@H](CC(C)C)C(=O)N[C@@H](Cc1ccccc1)C(N)=O", "test": "UHPLC-MS/MS", "test system": "human patients", "setting": "intravenous, 0.5 mg/kg, over 2 h", "Cmax": "2600 ng/mL"}
{"Structure (SMILES)": "C[C@H](CCC(=O)NCC(=O)O)[C@H]1CC[C@H]2[C@@H]3[C@H](O)C[C@@H]4C[C@H](OS(=O)(=O)O)CC[C@]4(C)[C@H]3CC[C@]12C", "test system": "human", "setting": "concentration not given, endogenous control diurnal", "Cmax": "169 ± 41 nM"}
{"Structure (SMILES)": "CC(C)C[C@H](NC(=O)[C@H](CCCN)NC(=O)CNC(=O)[C@@H](NC(=O)[C@H](C)NC(=O)[C@@H]1CSCSC[C@H](NC(=O)CC[C@H](N)C(=O)O)C(=O)N[C@@H](CC(N)=O)C(=O)N[C@@H]([C@@H](C)O)C(=O)N[C@@H](C)C(=O)N[C@@H]([C@@H](C)O)C(=O)N1)[C@@H](C)O)C(=O)N[C@@H](C)C(=O)N[C@@H](CCC(=O)O)C(=O)N[C@@](C)(Cc1ccccc1)C(=O)N[C@@H](CC(C)C)C(=O)N[C@H](C(=O)N[C@@H](CCCNC(=N)N)C(=O)N[C@@H](CO)C(=O)N[C@@H](CO)C(=O)N[C@@H](CC(N)=O)C(=O)N(C)[C@@H](CC(N)=O)C(=O)N[C@@H](Cc1ccccc1)C(=O)NCC(=O)N1CCC[C@H]1C(=O)N[C@@H](CCCCNC(=O)CC[C@H](NC(=O)CC[C@H](NC(=O)CCCCCCCCCCCCCCCCCCC(=O)O)C(=O)O)C(=O)O)C(=O)N[C@@H](CC(C)C)C(=O)N1CCC[C@H]1C(=O)N1CCC[C@H]1C(=O)N[C@H](C(=O)N[C@@H](CCC(=O)O)C(=O)N[C@H](C(=O)NCC(=O)N[C@@H](CO)C(=O)N[C@@H](CC(N)=O)C(=O)N[C@H](C(=O)N[C@@H](Cc1ccc(O)cc1)C(N)=O)[C@@H](C)O)C(C)C)[C@@H](C)O)C(C)C", "test system": "healthy human", "setting": "subcutaneous, 4 mg single dose, geometric LS mean", "Cmax": "344 ng/mL"}
{"Structure (SMILES)": "C[C@]12C[C@H](c3ccc(S(C)(=O)=O)cc3)[C@@H]3C4=C(CC[C@H]3[C@@H]1CC[C@@]2(O)C(F)(F)C(F)(F)F)C(=O)[C@H](O)CC4", "test system": "human", "setting": "oral, 5 mg multiple doses, day 28", "Cmax": "3.68 ng/mL"}
{"Structure (SMILES)": "CC1(C)CC[C@]2(NC(=O)C(C)(F)F)CC[C@]3(C)[C@H](C(=O)C=C4[C@@]5(C)C=C(C#N)C(=O)C(C)(C)[C@@H]5CC[C@]43C)[C@@H]2C1", "test": "geometric least squares mean", "test system": "human", "setting": "oral, dose not given, added: itraconazole", "Cmax": "119 ng/mL"}
{"Structure (SMILES)": "COc1cc2c(cc1OC)[C@H]1C[C@@H](O)[C@H](CC(C)C)CN1CC2", "test": "measured: non-deuterated analyte", "test system": "healthy human male", "setting": "oral, 25 mg, geometric mean, [14C]-tetrabenazine dosed", "Cmax": "17.6 ng/mL"}
{"Structure (SMILES)": "CCOc1cc(CC(=O)N[C@@H](CC(C)C)c2ccccc2N2CCCCC2)ccc1C(=O)O", "test system": "human", "setting": "oral, dose not given, geometric least-squares mean, added: omaveloxolone once daily", "Cmax": "15.8 ng/mL"}
{"Structure (SMILES)": "CCCCCCCOc1ccc(CC[C@](N)(CO)COP(=O)(O)O)cc1C(F)(F)F", "test system": "healthy human males", "setting": "0.125 mg, day 21", "Cmax": "1.43 ng/mL"}
{"Structure (SMILES)": "CN(C(=O)C(C)(C)c1cc(C(F)(F)F)cc(C(F)(F)F)c1)c1cnc(N2C[C@H]3COCCN3C[C@H]2CO)cc1-c1ccc(F)cc1CO", "test system": "human", "setting": "oral, 120 mg, geometric mean", "Cmax": "55.2 ng/mL"}
{"note": "Excerpt of the above:"}
{"Structure (SMILES)": "CC(C)C[C@H](NC(=O)[C@H](CCCN)NC(=O)CNC(=O)[C@@H](NC(=O)[C@H](C)NC(=O)[C@@H]1CSCSC[C@H](NC(=O)CC[C@H](N)C(=O)O)C(=O)N[C@@H](CC(N)=O)C(=O)N[C@@H]([C@@H](C)O)C(=O)N[C@@H](C)C(=O)N[C@@H]([C@@H](C)O)C(=O)N1)[C@@H](C)O)C(=O)N[C@@H](C)C(=O)N[C@@H](CCC(=O)O)C(=O)N[C@@](C)(Cc1ccccc1)C(=O)N[C@@H](CC(C)C)C(=O)N[C@H](C(=O)N[C@@H](CCCNC(=N)N)C(=O)N[C@@H](CO)C(=O)N[C@@H](CO)C(=O)N[C@@H](CC(N)=O)C(=O)N(C)[C@@H](CC(N)=O)C(=O)N[C@@H](Cc1ccccc1)C(=O)NCC(=O)N1CCC[C@H]1C(=O)N[C@@H](CCCCNC(=O)CC[C@H](NC(=O)CC[C@H](NC(=O)CCCCCCCCCCCCCCCCCCC(=O)O)C(=O)O)C(=O)O)C(=O)N[C@@H](CC(C)C)C(=O)N1CCC[C@H]1C(=O)N1CCC[C@H]1C(=O)N[C@H](C(=O)N[C@@H](CCC(=O)O)C(=O)N[C@H](C(=O)NCC(=O)N[C@@H](CO)C(=O)N[C@@H](CC(N)=O)C(=O)N[C@H](C(=O)N[C@@H](Cc1ccc(O)cc1)C(N)=O)[C@@H](C)O)C(C)C)[C@@H](C)O)C(C)C", "test system": "healthy human", "setting": "subcutaneous, 4 mg single dose, geometric LS mean", "Cmax": "344 ng/mL"}
